Assay results collected from several papers.
Parts stem from different laboratories: compare values within a part only.

Study 1 — technique: universal PBM; form: double-stranded DNA, one strand shown; matrix: in vitro; concentration: 600 nM; direction: higher = stronger binding
Target: Sal-like protein 4, full length isoform A (SALL4, Homo sapiens, UniProt Q9UJQ4, residues 1-1053)
UniProt Q9UJQ4, sequence (whole entry, looked up): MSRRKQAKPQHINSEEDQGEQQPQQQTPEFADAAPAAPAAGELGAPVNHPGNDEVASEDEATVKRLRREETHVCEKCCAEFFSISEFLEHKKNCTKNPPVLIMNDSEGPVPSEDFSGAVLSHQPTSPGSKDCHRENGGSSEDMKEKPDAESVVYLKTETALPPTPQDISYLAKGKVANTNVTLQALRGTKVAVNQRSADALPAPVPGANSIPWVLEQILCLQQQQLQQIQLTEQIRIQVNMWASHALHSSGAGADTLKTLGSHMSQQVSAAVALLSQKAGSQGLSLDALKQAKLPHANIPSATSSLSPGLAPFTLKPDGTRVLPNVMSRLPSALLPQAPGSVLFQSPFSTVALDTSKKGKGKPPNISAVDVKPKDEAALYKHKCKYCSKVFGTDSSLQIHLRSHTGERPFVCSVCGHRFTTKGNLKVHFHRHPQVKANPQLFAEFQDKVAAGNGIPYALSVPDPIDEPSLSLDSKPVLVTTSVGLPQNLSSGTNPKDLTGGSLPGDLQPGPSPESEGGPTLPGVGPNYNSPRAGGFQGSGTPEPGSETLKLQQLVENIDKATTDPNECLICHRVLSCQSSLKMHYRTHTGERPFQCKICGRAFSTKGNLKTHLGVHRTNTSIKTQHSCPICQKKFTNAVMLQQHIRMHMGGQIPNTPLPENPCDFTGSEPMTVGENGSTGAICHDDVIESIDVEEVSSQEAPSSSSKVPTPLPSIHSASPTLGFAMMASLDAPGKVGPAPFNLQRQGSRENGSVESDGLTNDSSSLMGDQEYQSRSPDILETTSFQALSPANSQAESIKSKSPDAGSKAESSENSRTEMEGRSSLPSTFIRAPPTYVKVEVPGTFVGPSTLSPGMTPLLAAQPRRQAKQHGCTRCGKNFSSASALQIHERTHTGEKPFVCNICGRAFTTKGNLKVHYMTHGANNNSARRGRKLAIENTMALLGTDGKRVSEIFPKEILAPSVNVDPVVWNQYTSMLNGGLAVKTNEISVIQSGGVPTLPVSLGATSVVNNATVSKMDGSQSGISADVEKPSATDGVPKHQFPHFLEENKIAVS
Notes: 8-mer, flanks averaged, mean of replicates
| Oligonucleotide | E-score |
| --- | --- |
| GTGCTAGA | -0.0248 |
| AGGTTCGA | 0.0354 |
| AGCCGCTA | -0.268 |

Further values, each from its own experiment
| Substance | target | assay | test system | conditions | scale | measurement | result |
| --- | --- | --- | --- | --- | --- | --- | --- |
| AGTGGTAC | Histone acetyltransferase KAT6A, winged helix 1, GST fusion (KAT6A, Homo sapiens, UniProt Q92794, residues 1-85) | protein binding microarray | double-stranded DNA, one strand shown, in vitro | not given, 8-mer, flanks averaged, mean of 2 arrays, mostly near background | relative to: not given, higher = stronger binding | E-score | -0.137 |
| PhoQ, residues 284 288 289 292 302 303 TTSMTC | PhoP, residues 12 14 15 18 19 NYFRM (Escherichia coli, UniProt P23836) | Sort-seq, measured: YFP reporter | E. coli | PhoQ-PhoP variant library, together with: 10 µM Mg2+ | relative to: high Mg2+ state, higher = stronger signaling | fold induction | 7.61 |
| CTATCTAA | Histone acetyltransferase KAT6A, winged helix 2, GST fusion (KAT6A, Homo sapiens, UniProt Q92794, residues 85-181) | protein binding microarray | double-stranded DNA, one strand shown, in vitro | not given, 8-mer, flanks averaged, mean of 2 arrays, mostly near background | relative to: not given, higher = stronger binding | E-score | -0.15 |
| GGTTGGTGTGGTTGG (2'F-ANA at 8 14 15) | Prothrombin, mature alpha-thrombin (F2, Homo sapiens, UniProt P00734) | aptamer microarray, sandwich | DNA with 2'F-ANA, in vitro | 200 nM, whole 15-mer aptamer, many near background, together with: Cy3 exosite-II aptamer, 400 nM | higher = stronger binding | mean fluorescence intensity | 222 a.u. |

For quick reference, copied from above (further values, each from its own experiment):
| Substance | target | assay | test system | conditions | scale | measurement | result |
| --- | --- | --- | --- | --- | --- | --- | --- |
| PhoQ, residues 284 288 289 292 302 303 TTSMTC | PhoP, residues 12 14 15 18 19 NYFRM (Escherichia coli, UniProt P23836) | Sort-seq, measured: YFP reporter | E. coli | PhoQ-PhoP variant library, together with: 10 µM Mg2+ | relative to: high Mg2+ state, higher = stronger signaling | fold induction | 7.61 |
